Measured values gathered from unrelated publications.
Protocols differ between the studies behind these lines. ± marks the error that the study gave.

The inhibition of `Cc1ccc(N2CCN(C)CC2)cc1C(=O)NC1(c2ccc3c4c(cccc24)CC3)CC1` is reported as 0% (SARS-CoV-2; viral replication; Vero C1008, wild type; 0.05144 µM).
The inhibition of `O=C(C=Cc1ccc(O)c(O)c1)OC1CC(O)(C(=O)O)CC(OC(=O)C=Cc2ccc(O)c(O)c2)C1O` (centres unmarked) is reported as 0% (Severe acute respiratory syndrome coronavirus 2; cytopathic effect; Vero C1008; 0.7812 µM).
With `CC(C)C1=C[C@@]23CC[C@@H]4[C@](C)(CCC[C@@]4(C)C(=O)OCC#CCN4CCCC4)[C@H]2C[C@@H]1[C@H]1C(=O)CCC(=O)[C@H]13` the inhibition was 16.8% (SARS-CoV-2 pseudovirus; pseudovirus infection; BHK-21-hACE2; 20.0 µM).
With `Cc1oc2nc1C(=O)N[C@](C)(C(=O)NCCc1ccccc1)c1nc(c(C)o1)C(=O)N[C@](C)(C(=O)NCCc1ccccc1)c1nc(c(C)o1)C(=O)N[C@]2(C)C(=O)NCCc1ccccc1` the inhibition was 58% (SARS-CoV-2; virucidal activity; Vero E6, NRC-03-nhCoV; 10 µM).
The inhibition of `Cc1ccc(N2CC(N3CCC(C)(O)CC3)C2)cc1C(=O)NC1(c2ccc3c4c(cccc24)CC3)CC1` is reported as 0% (SARS-CoV-2; viral replication; Vero C1008, wild type; 0.01715 µM).
`Cc1oc2nc1C(=O)N[C@](C)(C(=O)OC(C)C)c1nc(c(C)o1)C(=O)N[C@](C)(C(=O)OC(C)C)c1nc(c(C)o1)C(=O)N[C@]2(C)C(=O)OC(C)C` has an inhibition of 0% (SARS-CoV-2; viral adsorption; Vero E6, NRC-03-nhCoV; 2.5 µM).
`CCN(CC)CC#CCOC(=O)[C@]1(C)CCC[C@]2(C)[C@H]3C[C@H]4C(C(C)C)=C[C@]3(CC[C@H]21)[C@@H]1C(=O)CCC(=O)[C@@H]14` gave an inhibition of 42.2% (SARS-CoV-2 pseudovirus; pseudovirus infection; BHK-21-hACE2; 20.0 µM).
For `N=C(N)NCc1cn([C@@H]2[C@@H](OCCn3cc(COCCOCCOCCn4cc(-c5cc(OCCOCCO)c(C#Cc6cc(OCCOCCO)c(C#Cc7cc(OCCOCCO)c(-c8cn(CCOCCOCCOCc9cn(CCO[C@H]%10O[C@H](CO)[C@@H](O)[C@H](O)[C@@H]%10n%10cc(CNC(=N)N)nn%10)nn9)nn8)cc7OCCOCCO)cc6OCCOCCO)cc5OCCOCCO)nn4)nn3)O[C@H](CO)[C@@H](O)[C@@H]2O)nn1.O=CO.O=CO`, the inhibition was 94.6% (rVSV-luc pseudotyped with SARS-CoV-2 S; L-SIGN-mediated trans-infection; Jurkat expressing L-SIGN; 5 µM).
The inhibition of `CC(C)C1=C[C@@]23CC[C@@H]4[C@](C)(CCC[C@@]4(C)C(=O)OCC#CCN4CCOCC4)[C@H]2C[C@@H]1[C@H]1C(=O)OC(=O)[C@H]13` is reported as 34.8% (SARS-CoV-2 pseudovirus; pseudovirus infection; BHK-21-hACE2; 20.0 µM).
With `O=S(=O)(O)c1c2ccccc2c(-c2c3nc(c(-c4c5ccccc5c(S(=O)(=O)O)c5ccccc45)c4ccc([nH]4)c(-c4c5ccccc5c(S(=O)(=O)O)c5ccccc45)c4nc(c(-c5c6ccccc6c(S(=O)(=O)O)c6ccccc56)c5ccc2[nH]5)C=C4)C=C3)c2ccccc12` the inhibition was 39 ± 13% (vaccinia virus; viral replication; WR; 25 µg/mL, 16 h).
With `CCN(CC)CC#CCO[C@H]1CC[C@H](O)[C@@H]2[C@H]1[C@H]1C[C@@H]3[C@@]4(C)CCC[C@@](C)(C(=O)OC)[C@@H]4CC[C@@]23C=C1C(C)C` the inhibition was 39.9% (SARS-CoV-2 pseudovirus; pseudovirus infection; BHK-21-hACE2; 20.0 µM).
`Cc1oc2nc1C(=O)N[C@](C)(C(=O)O)c1nc(c(C)o1)C(=O)N[C@](C)(C(=O)O)c1nc(c(C)o1)C(=O)N[C@]2(C)C(=O)O` has an inhibition of 28% (SARS-CoV-2; virucidal activity; Vero E6, NRC-03-nhCoV; 10 µM).
The inhibition of `COC(=O)c1c(C)[nH]c2c3c(c(O)c(CN4CCOCC4)c12)[C@H]1C[C@@H]2[C@@]4(C)CCC[C@@](C)(C(=O)OC)[C@@H]4CC[C@@]32C=C1C(C)C` is reported as 31.7% (SARS-CoV-2 pseudovirus; pseudovirus infection; BHK-21-hACE2; 20.0 µM).
`O=[N+]([O-])c1ccc(-n2nc(-c3ccccc3)cc2-c2ccc(F)cc2)c([N+](=O)[O-])c1` has an inhibition of 33.3% (Japanese encephalitis virus; viral replication, measured: viral RNA; SA14-14-2, mice, brain; ip, 100 mg/kg/day, 120 h).
`Cc1ccc(N2CC(N3CCC(C)(O)CC3)C2)cc1C(=O)NC1(c2ccc3c4c(cccc24)C(=O)N3C)CC1` has an inhibition of 95% (SARS-CoV-2; viral replication; Vero C1008, wild type; 0.1543 µM).
The inhibition of `CC(C)CC(C(=O)N1CC2(CC1C#N)C(=O)Nc1ccccc12)N(C)C(=O)c1cc2c(F)cc(F)c(F)c2[nH]1` (centres unmarked) is reported as 100% (pangolin coronavirus; viral replication; 0.1111 µM).
For `Cc1ccc(N2CC3CC(C2)N3)cc1C(=O)NC1(c2ccc3c4c(cccc24)C(=O)N3C)CC1`, the inhibition was 100% (SARS-CoV-2; viral replication; Vero C1008, wild type; 12.5 µM).
For `COC(=O)c1cc2c(=O)n3ccccc3nc2n1Cc1ccccc1`, the inhibition was 22.2% (Severe acute respiratory syndrome coronavirus 2; viral replication, inhibitor, qPCR; Vero C1008; 1 µM).
For `CCN(CC)CC#CCOC(=O)[C@]1(C)CCC[C@]2(C)c3ccc(C(C)C)cc3CC[C@@H]12`, the inhibition was 47.7% (SARS-CoV-2 pseudovirus; pseudovirus infection; BHK-21-hACE2; 20.0 µM).
For `Cc1ccc(N2CC3CC(C2)N3C)cc1C(=O)NC1(c2ccc3c4c(cccc24)C(=O)N3C)CC1`, the inhibition was 0% (SARS-CoV-2; viral replication; Vero C1008, Omicron BA.5; 0.005716 µM, 72 h).

Repeated from above:
`Cc1oc2nc1C(=O)N[C@](C)(C(=O)O)c1nc(c(C)o1)C(=O)N[C@](C)(C(=O)O)c1nc(c(C)o1)C(=O)N[C@]2(C)C(=O)O` has an inhibition of 28% (SARS-CoV-2; virucidal activity; Vero E6, NRC-03-nhCoV; 10 µM).
`O=[N+]([O-])c1ccc(-n2nc(-c3ccccc3)cc2-c2ccc(F)cc2)c([N+](=O)[O-])c1` has an inhibition of 33.3% (Japanese encephalitis virus; viral replication, measured: viral RNA; SA14-14-2, mice, brain; ip, 100 mg/kg/day, 120 h).
With `Cc1oc2nc1C(=O)N[C@](C)(C(=O)NCCc1ccccc1)c1nc(c(C)o1)C(=O)N[C@](C)(C(=O)NCCc1ccccc1)c1nc(c(C)o1)C(=O)N[C@]2(C)C(=O)NCCc1ccccc1` the inhibition was 58% (SARS-CoV-2; virucidal activity; Vero E6, NRC-03-nhCoV; 10 µM).
